# Published values pooled from the literature.
# A part holds a random share of what one study measured. Changes are numbered by the printed parent chain.

# Study 1
# Target: Prothrombin, mature alpha-thrombin (F2, Homo sapiens, UniProt P00734)
# Method: aptamer microarray, sandwich
# Molecule type: DNA with 2'F-ANA
# Sample: in vitro
# Tested at: 200 nM
# Notes: whole 15-mer aptamer, many near background
# With: Cy3 exosite-II aptamer, 400 nM
# Direction: higher = stronger binding
# Sequence: GGTTGGTGTGGTTGG
Modification,mean fluorescence intensity
2'F-ANA at 1 2 3 4 5 6 7 8 11 13,53.1 a.u.
2'F-ANA at 3 8 10 14 15,417 a.u.
2'F-ANA at 2 4 7 8 9 11 13 15,200 a.u.
2'F-ANA at 1 5 7 9 10 11 12 13 15,47 a.u.
2'F-ANA at 4 5 6 8 10 11 12 15,50.5 a.u.
2'F-ANA at 3 4 7 10 14 15,220 a.u.
2'F-ANA at 2 5 6 9 12 13 15,130 a.u.
2'F-ANA at 2 3 4 8 12 14 15,356 a.u.
2'F-ANA at 4 5 7 9 11 13 14,56.1 a.u.
2'F-ANA at 2 3 5 7 8 9 11 14 15,52.7 a.u.
2'F-ANA at 1 2 3 4 5 6 7 11 12 14 15,52.4 a.u.
2'F-ANA at 1 2 6 7 8 10 11 12 13,60.3 a.u.
2'F-ANA at 3 6 7 8 11 12 14 15,565 a.u.
2'F-ANA at 1 3 4 6 7 8 9 11 14,72 a.u.
2'F-ANA at 2 4 5 8 9 15,69.9 a.u.
2'F-ANA at 1 3 4 9 10 11 13 15,56.6 a.u.
2'F-ANA at 2 3 4 6 9 10 11 12 13 15,195 a.u.
2'F-ANA at 2 3 5 6 8 9 12 13,141 a.u.

# Study 2
# Target: ABI1, truncated, D143A, DHFR fusion (Arabidopsis thaliana)
# Method: DHFR PCA, deep sequencing
# Sample: yeast
# Notes: methotrexate growth selection, single substitutions
# With: (+)-ABA 710 µM
# Baseline: wild-type fitted maximum
# Direction: higher = stronger binding
# Parent: PYL1, truncated, DHFR fusion (Arabidopsis thaliana); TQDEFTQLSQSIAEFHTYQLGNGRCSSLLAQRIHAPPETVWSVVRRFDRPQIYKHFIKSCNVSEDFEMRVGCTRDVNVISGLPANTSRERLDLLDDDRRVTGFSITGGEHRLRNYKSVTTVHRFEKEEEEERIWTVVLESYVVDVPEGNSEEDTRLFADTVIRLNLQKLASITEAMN
Substitution,relative binding score [%]
R32P,87.5
C25E,51.1
S140T,34.4
Q2I,100
A175M,95
S9T,105
G107R,82.6
I79W,103
R46G,95.1
R163C,78.4
D97C,110
F103K,-28.1
V43K,85.1
V118L,95.1
E109M,94.7
F157Q,8.54
L8G,78.1
K58V,91.3
S140Y,28.8
S11D,104
S140R,25.2
S11L,97.3
Y53F,92.2

# Study 3
# Target: Histone acetyltransferase KAT6A, winged helix 2, GST fusion (KAT6A, Homo sapiens, UniProt Q92794, residues 85-181)
# Method: protein binding microarray
# Molecule type: double-stranded DNA, one strand shown
# Sample: in vitro
# Tested at: not given
# Notes: 8-mer, flanks averaged, mean of 2 arrays, mostly near background
# Baseline: not given
# Direction: higher = stronger binding
# Construct (chain): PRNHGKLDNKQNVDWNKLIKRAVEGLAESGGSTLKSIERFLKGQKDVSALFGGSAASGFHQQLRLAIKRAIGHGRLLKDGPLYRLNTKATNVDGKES
Sequence,E-score
CGGCCATA,-0.0687
AGCGCAGA,0.0992
ACGAGCAG,0.00961
ACATGGTA,-0.266
CCGTTCAA,0.0152
GTCCGTTA,-0.0513
CTATAGCC,-0.196
AGCAATTG,0.0622
CATCAGAC,-0.0868
ACGACTGC,-0.125
ATGGGTGG,-0.0964
CCCACGAC,0.172
GATCAGAA,-0.0314
ACATGCGA,-0.031
GTGCGAAC,0.111
TCGGCACA,0.0561
CCTGTACC,-0.0284
GAGAAAAC,-0.0675
GGTAAGAA,-0.0298
AAAGCGTG,-0.0854
GAGATCGC,-0.0236
ACATGCCT,-0.0948
CGAAGACA,-0.0307
TGCACTAA,0.143
TAAGACAA,-0.0633

# Study 4
# Target: RNA binding protein fox-1 homolog 2, RRM domain, GST-SBP tag (RBFOX2, Homo sapiens, UniProt O43251-10, residues 100-194)
# Method: RNA Bind-n-Seq
# Molecule type: RNA
# Sample: in vitro
# Tested at: 365 nM
# Notes: natural RNA segment, single round, ends assumed
# Baseline: no-protein control
# Direction: higher = stronger binding
# Target sequence (chain): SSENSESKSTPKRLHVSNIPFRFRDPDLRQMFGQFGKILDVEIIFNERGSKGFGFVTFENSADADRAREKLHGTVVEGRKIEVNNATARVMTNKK
Sequence,RBNS enrichment (R)
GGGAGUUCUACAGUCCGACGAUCUUUUAGAAAGCAGCUUACUAGUUUACCCUUGUGGUAUAAAGUAUUAUAAAUUGUUGUGAAUUUGAAGAAUCCGUCUACUGUAUUAUUGCUAAAUAUUUUGUUUAUACUAAUGGAAUUCUCGGGUGCCAA,0.513
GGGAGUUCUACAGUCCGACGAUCGAAUGUCUUUAUUUUUAAUACCAACAUCAGCAUAAAUCUAUUUUUGCUAGUAGAUCAAAGCUAUUUUCACACGCUCUGUUUUCUAUCUUGUAUCGAUCCUGCGAAUCAGUUGGAAUUCUCGGGUGCCAA,0.406
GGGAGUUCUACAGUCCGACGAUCGGGAAAUUGAUUAAAGGGGCUGUCUCCCAAUGAAAGAGGCAUUCCCAGAAUUUGCUGCAUUUAGAUUUUGAUACCAGUGAGCAGAGCCCUCAUGUGACAUGAACCCAUCCUGGAAUUCUCGGGUGCCAA,1.25
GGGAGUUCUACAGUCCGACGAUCUCUGCAAAUACUGUCUUUCCUGGAUUACACAUAGUGUGGUUUCCUGAGGGAUUCUGACUAAUGUGGUUUUUAAAACUUGGGUGUACUUUUUAGGAAAAUUGCAUCUGGCUUGGAAUUCUCGGGUGCCAA,0.883
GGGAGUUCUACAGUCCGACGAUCUAUUUUUUUCCCUUCUGGCUGUAAGGUUUGUACAGACUGGUUUGGUAAAUGCUAAACUUUUGUGUCUUUUGCCUUUUUAAAGGAAUUGUUAACAUUGGAAUUGAGGGUAUUGGAAUUCUCGGGUGCCAA,0.72
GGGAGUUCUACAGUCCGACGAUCUCCUCCUGGAAUAUGUACGGAUGGAAGUCUUGGUUGAAGCAGGUUCCCCUGGGAAGUGCUCUCAGCAGGCCUUGCGGAGCAGAGCAGAGCUGGGCAGAGCUGACUCCUGCUGGAAUUCUCGGGUGCCAA,0.465
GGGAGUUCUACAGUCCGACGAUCUACCUAAUAAGAUUGAGUGAAAAAUUUGAGUCAAAUAUCUAGGGCAUUCACAGAGUAGCUGUGAGUUCUUGGUAAUGUGAAAAAGGCCUUGUUUUUCAGAAAUUCCUGGGUGGAAUUCUCGGGUGCCAA,0.433
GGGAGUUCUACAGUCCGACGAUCGGGAAAUGCAGUGAAUUACUAUCUGUGUCCAUCAGGAAGUUUGUCCUGUUAACCAAAUGGUUACUGCACUACCAGGGUUACUGGUUUAUUUUCCAGGGAGCUGAUAAAGCUGGAAUUCUCGGGUGCCAA,0.304

# Single results of other studies
Molecule,target,assay,test system,conditions,how to read,quantity,result
"PhoQ, residues 284 288 289 292 302 303 HSYLQF","PhoP, residues 12 14 15 18 19 NQGLL (Escherichia coli, UniProt P23836)","Sort-seq, measured: YFP reporter",E. coli,"PhoQ-PhoP variant library, with: 10 µM Mg2+","baseline: high Mg2+ state, higher = stronger signaling",fold induction,2.58

# For quick reference, copied from above (study 3):
Sequence,E-score
GATCAGAA,-0.0314
ACATGCGA,-0.031
GTGCGAAC,0.111
TCGGCACA,0.0561
CCTGTACC,-0.0284
